Earlier results as cited in several papers.
Compare with care: the assays were run in different laboratories.

COc1ccc2[nH]c([S+]([O-])Cc3ncc(C)c(OC)c3C)nc2n1 (stereo not drawn)
inhibition (SARS-CoV-2; cytopathic effect; Caco-2; 10 µM): -1.5%

C[C@@H]1Cc2ccc(C(=O)N[C@@H](Cc3ccccc3)C(=O)O)c(O)c2C(=O)O1
cytotoxic concentration ratio (chicken embryonic meningeal fibroblasts; relative to: compound over ochratoxin A): 19

CC[C@H]1OC(=O)[C@H](C)[C@@H](O[C@H]2C[C@@](C)(OC)[C@@H](O)[C@H](C)O2)[C@H](C)[C@@H](O[C@@H]2O[C@H](C)C[C@H](N(C)C)[C@H]2O)[C@](C)(O)C[C@@H](C)CN(C)[C@H](C)[C@@H](O)[C@]1(C)O
IC50 (SARS-CoV-2; cytopathic effect; USA_WA1/2020): 48 µM

Cc1c(O)cccc1C(=O)N[C@@H](CSc1ccccc1)[C@H](O)CN1C[C@H]2CCCC[C@H]2C[C@H]1C(=O)NC(C)(C)C
concentration for complete inhibition (SARS-CoV; viral replication; not reached): > 10 µM

N[C@@H](CC(=O)N1CCn2c(nnc2C(F)(F)F)C1)Cc1cc(F)c(F)cc1F
IC50 (Replicase polyprotein 1ab, papain-like protease (rep, Severe acute respiratory syndrome coronavirus 2, UniProt P0DTD1); PLpro activity, inhibitor, cell-based ER membrane-anchored reporter translocation): ~10 µM

CCN(CC)CCCC(C)Nc1ccnc2cc(Cl)ccc12 (stereo not drawn)
IC50 (SARS-CoV-2; cytopathic effect; USA_WA1/2020): 6.5 µM

COc1ccc2c(O[C@@H]3C[C@H]4C(=O)N[C@]5(C(=O)NS(=O)(=O)C6CC6)C[C@H]5/C=C\CCCCN(C)C(=O)[C@@H]4C3)cc(-c3nc(C(C)C)cs3)nc2c1C
EC50 (SARS-CoV-2; viral replication; Huh7.5): 14 µM

C[C@@H]1Cc2c(Cl)cc(C(=O)N[C@@H](Cc3ccccc3)C(=O)O)c(O)c2C(=O)O1
maximum concentration in eggs (laying hens, egg; oral, in feed, 5 mg/kg feed, 21 d): 7.4 µg/kg

COc1ccc2c(O[C@@H]3C[C@H]4C(=O)N[C@]5(C(=O)NS(=O)(=O)C6CC6)C[C@H]5/C=C\CCCCN(C)C(=O)[C@@H]4C3)cc(-c3nc(C(C)C)cs3)nc2c1C
IC50 (SARS-CoV-2; viral replication; 293T/ACE2): 2.3 µM
